Assay results gathered from unrelated publications.
Protocols differ between the studies behind these lines. “And” joins repeats or separate records; there may be more than shown.
Target: Tyrosine-protein kinase receptor UFO (AXL, Homo sapiens, UniProt P30530)

SMILES = COc1ccc(NC(=O)Nc2ccc3c(c2)C(=O)N(C(C)CO)CC(C)C(CN(C)Cc2ccc4c(c2)OCO4)O3)cc1 (centres unmarked); assay = kinase activity, KinaseProfiler; conditions = 0.03 µM, species human; scale = baseline: control; endpoint = remaining activity; result = 94%
SMILES = C=CC(=O)Nc1cccc(-c2cnc3[nH]cc(C(=O)NC(C)(C)C)c3n2)c1; assay = kinase activity; conditions = 0.1 µM; endpoint = inhibition; result = 28% and 26%
SMILES = CN1CC[C@@H](COc2cnc(C#N)cc2-c2ccn3nc(NC(=O)C4CC4)cc3c2)C1; assay = enzyme activity, inhibitor; conditions = 1 µM; endpoint = inhibition; result = 2%
SMILES = Cc1ccc(-c2c(/C=C(\C#N)C(=O)NC(C)C)n(CCCO)c3ncnc(N)c23)cc1; assay = cell-free assay, competition with immobilised ligand; conditions = 1 µM; endpoint = remaining binding; result = 68%
SMILES = CNS(=O)(=O)Nc1nccc(Cc2c(C)c3ccc(Oc4ncccc4F)cc3oc2=O)c1F; assay = binding, competition with immobilised ligand; conditions = 10 µM; endpoint = remaining binding; result = 98%
SMILES = NC(=O)C[C@H]1CCc2sc3ncnc(O[C@H]4CC[C@H](N5CCOCC5)CC4)c3c21; assay = enzyme activity, inhibitor; conditions = 10 µM; endpoint = inhibition; result = 1%
SMILES = CCN1CCN(Cc2ccc(C(=O)Nc3ccc(C)c(NCc4cnc5[nH]ccc5c4OC)c3)cc2C(F)(F)F)CC1; assay = binding, competition with immobilised ligand; conditions = 1 µM; endpoint = remaining binding; result = 60%
SMILES = COc1ccc(O)cc1-c1c[nH]c2ncc(-c3cncc(C(=O)N(C)C)c3)cc12; assay = binding, competition with immobilised ligand; conditions = 0.2 µM; endpoint = inhibition; result = 11.3%
SMILES = Nc1ncc2c(n1)-c1c([nH]c3ccc(C4=CCOCC4)cc13)CCC2; assay = binding, competition with immobilised ligand; conditions = 1 µM; endpoint = remaining binding; result = 72%
SMILES = C=C1CCCCCCCCCC(CO)C1=O (centres unmarked); assay = cell-free assay, competition with immobilised ligand; conditions = 10 µM; endpoint = remaining binding; result = 96%
SMILES = COCC12C(=O)NC3C4(C(OC)CC1O)C1CC5(O)C(OC)C(O)C(OC(C)=O)(C1C5OC(=O)c1ccccc1)C3(O)C(OC)C24 (centres unmarked); assay = kinase activity, inhibitor, ProQinase kinase profiling; conditions = 25 µM; scale = baseline: control; endpoint = remaining activity; result = 103% and 107%
SMILES = Nc1ncc(-c2cc(-c3cnn(CC(F)(F)F)c3)ncc2F)nc1C(=O)NC1CNCC(F)C1 (centres unmarked); assay = enzyme activity; conditions = 1 µM; scale = baseline: DMSO control; endpoint = remaining activity; result = 48.5%
SMILES = CN1CCN(Cc2ccc(NC(=O)c3cccc(C#Cc4cnc(N)c5ncccc45)c3)cc2C(F)(F)F)CC1; assay = cell-free assay, competition with immobilised ligand; conditions = 0.5 µM; endpoint = remaining binding; result = 0.4%
SMILES = Cc1cccc(O[C@H]2CCC[C@@H](C(C)CNCc3ccncc3)C2)c1 (relative stereo); assay = cell-free assay; conditions = 1 µM; endpoint = inhibition; result = 5%
SMILES = COc1c(Cl)cccc1Nc1c(-c2ccncc2C#C[C@@]2(C)CCCN2C(=O)/C=C/CN(C)C)[nH]c2c1C(=O)NCC2; assay = binding, competition with immobilised ligand; conditions = 3 µM; endpoint = remaining binding; result = 100%
SMILES = C[C@H]1CN(C(=O)c2cn(-c3ccnc(N)n3)c3cc(C#CC4(O)CCCCC4)ccc23)CCN1; assay = enzyme activity, inhibitor, FRET; conditions = 1 µM; endpoint = inhibition; result = -2%
SMILES = CNC(=O)C1CCN(c2cc(C)c(F)cc2NC(=O)c2ccc(-c3cc(O)ccc3C)c(C)c2)CC1; assay = binding, competition with immobilised ligand; conditions = 1 µM; endpoint = remaining binding; result = 65%
SMILES = COc1cc(Nc2nccc(-c3cnn4nc(OC)ccc34)n2)cc(C(F)(F)F)c1; assay = binding, competition with immobilised ligand; conditions = 1 µM; endpoint = remaining binding; result = 72%
SMILES = O=C=[N][Ru-4]123([n]4c5ccc(O)cc5c5c6c(c7cc(F)c[n+]1c7c54)C(=O)NC6=O)[S+]1CC[S+]2CC[S+]3CC1 (centres unmarked); assay = enzyme activity; conditions = 100 nM, human enzyme, added: 10 µM ATP; scale = baseline: untreated; endpoint = remaining activity; result = 100%
SMILES = O=C(Cc1ccc(OCc2ccccc2)cc1)NC1(C(=O)O)CCN(C(=O)c2ccc(-c3cccc(Cl)c3)cc2)CC1; assay = enzyme activity, inhibitor; conditions = 10 µM; endpoint = activity vs control; result = 76%
